Measurements of several laboratories.
“And” joins repeats or separate records; there may be more than shown. Numbers after ± are the reported error.
Dipeptidyl peptidase 8: Dipeptidyl peptidase 8 (Homo sapiens, UniProt Q6V1X1)
Chain of UniProt Q92633 (whole entry, looked up): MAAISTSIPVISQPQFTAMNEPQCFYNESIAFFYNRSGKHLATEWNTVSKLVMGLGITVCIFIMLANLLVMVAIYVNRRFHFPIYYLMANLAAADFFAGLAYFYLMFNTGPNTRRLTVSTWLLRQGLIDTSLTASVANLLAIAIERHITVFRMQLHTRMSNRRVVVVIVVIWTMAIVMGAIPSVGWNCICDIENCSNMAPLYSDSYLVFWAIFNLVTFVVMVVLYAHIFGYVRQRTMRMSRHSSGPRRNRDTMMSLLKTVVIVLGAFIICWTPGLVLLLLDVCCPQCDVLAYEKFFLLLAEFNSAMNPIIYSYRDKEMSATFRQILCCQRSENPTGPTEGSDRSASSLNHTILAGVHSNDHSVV
Chain of UniProt Q8H1R0 (whole entry, looked up): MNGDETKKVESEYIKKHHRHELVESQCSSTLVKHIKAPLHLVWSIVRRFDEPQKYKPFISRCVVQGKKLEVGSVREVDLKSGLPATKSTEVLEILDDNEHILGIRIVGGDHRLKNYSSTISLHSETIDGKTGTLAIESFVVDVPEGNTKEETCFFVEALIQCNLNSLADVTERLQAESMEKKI
Chain of UniProt Q96CN7 (whole entry, looked up): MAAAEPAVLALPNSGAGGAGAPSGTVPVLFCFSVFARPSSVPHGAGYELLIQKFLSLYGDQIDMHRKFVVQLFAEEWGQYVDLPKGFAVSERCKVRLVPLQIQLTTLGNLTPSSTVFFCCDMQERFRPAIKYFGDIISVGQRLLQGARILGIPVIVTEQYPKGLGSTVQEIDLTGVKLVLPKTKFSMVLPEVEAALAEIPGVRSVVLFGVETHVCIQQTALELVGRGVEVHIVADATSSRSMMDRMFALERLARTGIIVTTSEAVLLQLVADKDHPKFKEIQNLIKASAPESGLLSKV
Chain of UniProt Q6V1X1 (whole entry, looked up): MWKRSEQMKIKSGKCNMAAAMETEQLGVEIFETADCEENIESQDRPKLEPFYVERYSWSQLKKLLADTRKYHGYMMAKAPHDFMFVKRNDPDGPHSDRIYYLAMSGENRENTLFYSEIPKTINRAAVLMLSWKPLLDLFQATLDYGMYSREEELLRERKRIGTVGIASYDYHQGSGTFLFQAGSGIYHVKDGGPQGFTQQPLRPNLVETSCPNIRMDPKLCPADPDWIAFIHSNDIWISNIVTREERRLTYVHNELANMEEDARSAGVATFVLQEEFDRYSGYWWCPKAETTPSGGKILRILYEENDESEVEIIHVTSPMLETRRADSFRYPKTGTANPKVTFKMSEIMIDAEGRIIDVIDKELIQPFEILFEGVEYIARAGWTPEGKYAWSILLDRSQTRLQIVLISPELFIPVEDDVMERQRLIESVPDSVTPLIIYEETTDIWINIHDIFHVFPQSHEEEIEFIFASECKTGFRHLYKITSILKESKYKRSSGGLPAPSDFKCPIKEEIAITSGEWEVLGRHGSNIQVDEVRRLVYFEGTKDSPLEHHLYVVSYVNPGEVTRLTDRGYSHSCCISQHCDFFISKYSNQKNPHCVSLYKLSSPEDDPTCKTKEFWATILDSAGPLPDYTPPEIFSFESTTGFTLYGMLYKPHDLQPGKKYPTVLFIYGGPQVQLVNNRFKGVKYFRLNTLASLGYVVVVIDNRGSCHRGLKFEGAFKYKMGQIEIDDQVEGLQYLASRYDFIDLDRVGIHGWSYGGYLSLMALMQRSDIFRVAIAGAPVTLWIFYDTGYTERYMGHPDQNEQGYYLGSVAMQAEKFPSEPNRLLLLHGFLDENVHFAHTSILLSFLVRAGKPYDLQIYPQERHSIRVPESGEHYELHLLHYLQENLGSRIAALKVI
Chain of UniProt Q13148 (whole entry, looked up): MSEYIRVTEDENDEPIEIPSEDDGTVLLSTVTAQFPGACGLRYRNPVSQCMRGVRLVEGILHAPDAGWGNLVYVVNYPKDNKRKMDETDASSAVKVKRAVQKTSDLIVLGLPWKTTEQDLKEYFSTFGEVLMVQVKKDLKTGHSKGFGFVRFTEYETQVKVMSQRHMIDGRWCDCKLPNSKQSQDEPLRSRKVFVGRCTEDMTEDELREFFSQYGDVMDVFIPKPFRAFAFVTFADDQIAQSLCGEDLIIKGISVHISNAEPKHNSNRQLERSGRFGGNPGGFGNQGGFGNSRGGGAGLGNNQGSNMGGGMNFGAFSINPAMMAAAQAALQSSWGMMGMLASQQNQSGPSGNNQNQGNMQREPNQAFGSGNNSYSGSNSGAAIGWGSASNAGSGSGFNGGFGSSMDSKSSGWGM
Chain of UniProt P14416 (whole entry, looked up): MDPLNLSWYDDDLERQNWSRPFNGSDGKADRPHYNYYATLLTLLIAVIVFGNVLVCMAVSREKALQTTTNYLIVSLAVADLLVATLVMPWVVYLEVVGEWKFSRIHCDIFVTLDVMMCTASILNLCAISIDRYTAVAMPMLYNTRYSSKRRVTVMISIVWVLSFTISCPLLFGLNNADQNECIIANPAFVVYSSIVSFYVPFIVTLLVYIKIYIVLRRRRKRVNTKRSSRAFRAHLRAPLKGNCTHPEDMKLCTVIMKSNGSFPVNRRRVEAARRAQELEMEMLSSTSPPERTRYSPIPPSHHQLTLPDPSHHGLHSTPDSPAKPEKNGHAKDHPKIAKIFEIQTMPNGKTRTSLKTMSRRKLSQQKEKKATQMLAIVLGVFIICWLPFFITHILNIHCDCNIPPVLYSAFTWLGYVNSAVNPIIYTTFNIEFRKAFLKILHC
Chain of UniProt Q15910 (whole entry, looked up): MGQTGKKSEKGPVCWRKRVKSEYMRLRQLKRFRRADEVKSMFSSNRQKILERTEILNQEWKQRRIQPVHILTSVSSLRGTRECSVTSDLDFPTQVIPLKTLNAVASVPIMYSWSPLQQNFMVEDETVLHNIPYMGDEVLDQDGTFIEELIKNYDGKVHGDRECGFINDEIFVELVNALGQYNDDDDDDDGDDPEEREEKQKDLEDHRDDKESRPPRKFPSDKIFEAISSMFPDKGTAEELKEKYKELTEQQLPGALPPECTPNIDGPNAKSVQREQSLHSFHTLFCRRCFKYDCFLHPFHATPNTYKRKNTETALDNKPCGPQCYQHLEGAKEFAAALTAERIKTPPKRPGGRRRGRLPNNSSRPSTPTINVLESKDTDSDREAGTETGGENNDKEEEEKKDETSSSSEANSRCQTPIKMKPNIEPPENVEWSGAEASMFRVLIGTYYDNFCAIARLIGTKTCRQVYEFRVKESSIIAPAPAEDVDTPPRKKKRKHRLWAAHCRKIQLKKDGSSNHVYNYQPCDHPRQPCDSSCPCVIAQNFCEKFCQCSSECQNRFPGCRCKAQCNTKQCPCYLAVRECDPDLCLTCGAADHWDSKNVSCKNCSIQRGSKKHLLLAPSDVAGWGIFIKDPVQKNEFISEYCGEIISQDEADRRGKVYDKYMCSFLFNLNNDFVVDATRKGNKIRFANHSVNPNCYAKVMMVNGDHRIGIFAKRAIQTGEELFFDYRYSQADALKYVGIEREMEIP
Chain of UniProt P47936 (whole entry, looked up): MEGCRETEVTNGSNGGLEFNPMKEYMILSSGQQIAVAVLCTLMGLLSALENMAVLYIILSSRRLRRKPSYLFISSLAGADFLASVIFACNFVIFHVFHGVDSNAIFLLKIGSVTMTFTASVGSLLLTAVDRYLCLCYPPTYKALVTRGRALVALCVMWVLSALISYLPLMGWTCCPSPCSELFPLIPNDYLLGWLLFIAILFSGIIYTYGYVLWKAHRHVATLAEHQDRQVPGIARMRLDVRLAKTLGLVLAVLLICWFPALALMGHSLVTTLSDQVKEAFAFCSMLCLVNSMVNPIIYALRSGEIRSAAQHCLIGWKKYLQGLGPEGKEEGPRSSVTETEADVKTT
Chain of UniProt P02769 (whole entry, looked up): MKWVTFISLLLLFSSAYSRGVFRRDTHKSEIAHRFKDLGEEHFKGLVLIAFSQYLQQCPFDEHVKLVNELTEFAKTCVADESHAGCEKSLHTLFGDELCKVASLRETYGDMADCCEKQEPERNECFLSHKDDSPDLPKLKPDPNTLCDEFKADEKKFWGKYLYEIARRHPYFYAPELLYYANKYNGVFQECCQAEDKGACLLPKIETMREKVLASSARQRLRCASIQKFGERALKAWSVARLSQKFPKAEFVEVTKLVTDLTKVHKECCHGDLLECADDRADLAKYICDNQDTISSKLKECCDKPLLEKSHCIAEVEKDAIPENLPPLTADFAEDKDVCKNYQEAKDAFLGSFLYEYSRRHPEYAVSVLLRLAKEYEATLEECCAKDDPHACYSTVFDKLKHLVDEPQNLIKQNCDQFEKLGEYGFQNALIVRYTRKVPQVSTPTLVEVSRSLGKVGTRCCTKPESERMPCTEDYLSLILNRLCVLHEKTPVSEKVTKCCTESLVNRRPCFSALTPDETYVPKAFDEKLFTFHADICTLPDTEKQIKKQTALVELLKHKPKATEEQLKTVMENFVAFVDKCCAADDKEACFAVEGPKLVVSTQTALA
Chain of UniProt Q16539 (whole entry, looked up): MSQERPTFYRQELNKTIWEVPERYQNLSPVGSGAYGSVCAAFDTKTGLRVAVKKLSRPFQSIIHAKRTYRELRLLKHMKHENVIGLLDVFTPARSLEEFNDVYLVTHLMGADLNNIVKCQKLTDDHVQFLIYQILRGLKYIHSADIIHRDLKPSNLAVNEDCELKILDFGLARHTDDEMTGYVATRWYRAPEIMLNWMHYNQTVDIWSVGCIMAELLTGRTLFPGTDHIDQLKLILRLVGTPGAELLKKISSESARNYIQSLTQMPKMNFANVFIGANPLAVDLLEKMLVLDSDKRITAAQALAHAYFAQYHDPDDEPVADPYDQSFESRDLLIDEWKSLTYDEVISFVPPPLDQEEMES
Chain of UniProt P02754 (whole entry, unmodified, looked up): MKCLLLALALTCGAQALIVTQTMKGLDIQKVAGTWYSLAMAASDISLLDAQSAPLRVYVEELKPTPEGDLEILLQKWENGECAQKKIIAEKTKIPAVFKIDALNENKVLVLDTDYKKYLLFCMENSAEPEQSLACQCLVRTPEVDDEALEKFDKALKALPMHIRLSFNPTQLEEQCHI

Structure (SMILES)	target	assay	system	conditions	scale	endpoint	result
O=C1c2sc(-c3ccc(N4CCC(F)C4)nc3F)nc2CCN1c1cccnc1 (centres unmarked)	TAR DNA-binding protein 43, aggregated (TARDBP, Homo sapiens, UniProt Q13148)	saturation autoradiography	human, FTLD-TDP type A brain sections	4.87 nM		specific binding	69.6 nM
O=C(O)c1cccc(-c2ccccc2O[C@@H]2O[C@H](CO)[C@H](O)[C@H](O)[C@H]2O)c1	Adhesin FmlH, lectin domain (Escherichia coli, UniProt Q1RBS0)	binding to desialylated BSM, competition ELISA	UPEC UTI89	10 µM		inhibition (PI10)	75.1 ± 1%
CC[C@H](C)[C@@H]1NC(=O)[C@H](Cc2ccc(O)cc2)NC(=O)[C@H](Cc2ccccc2)NC(=O)[C@H](C(C)C)NC(=O)[C@H](Cc2ccccc2)NC(=O)CSC[C@@H](C(=O)N[C@@H](Cc2c[nH]cn2)C(N)=O)NC(=O)[C@H](CC(N)=O)NC(=O)[C@H](Cc2c[nH]c3ccccc23)NC1=O	Stimulator of interferon genes protein (STING1, Homo sapiens, UniProt Q86WV6, H232R)	thermal stability, DSF		100 µM		ΔTm	8.95 °C
CCCCCC(O)/C=C/C=O (centres unmarked)	Plexin-B2 (PLXNB2, Homo sapiens, UniProt O15031)	IA-probe cysteine labelling, covalent modifier, competitive isoTOP-ABPP	Ramos proteome	100 µM, in vitro	reference: DMSO over compound, higher = stronger blockade	isoTOP-ABPP ratio	15
Oc1ccc(/C=C/c2cc(O)cc(O)c2)cc1	O-methyltransferase (Sorghum bicolor, UniProt A0A1B6PFV1, W279A)	isothermal titration calorimetry		W279A mutant, added: saturating sinefungin		cooperativity factor	1.2
CCC1(C)C(=O)N(c2cccc(CN3CCN(Cc4ccc(Br)cc4)CC3)c2)C1=O	Dipeptidyl peptidase 8	enzyme activity, inhibitor		5 µM		activity vs control	62%
CCCCCCCC/C=C\CCCCCCCC(=O)OCC(O)COP(=O)(O)O (centres unmarked)	Lysophosphatidic acid receptor 1 (LPAR1, Homo sapiens, UniProt Q92633)	G-protein dissociation, agonist, NanoBiT	HEK-293T	100 nM, wild-type receptor	reference: baseline luminescence	fold change	0.694 and 0.77 and 0.719 and 0.716 and 0.777 and 0.723
CC(C)(C)OC(=O)N1CCN(CC(OCc2ccc(Br)cc2)c2ccc(Cl)cc2Cl)CC1 (centres unmarked)	Serine/threonine-protein kinase ULK1 (ULK1, Homo sapiens, UniProt O75385)	enzyme activity, inhibitor, ADP detection		0.1 µM		activity vs control	135%
CC(=O)N[C@H]1[C@H]([C@H](O)[C@H](O)CNC(=O)c2ccc(-c3ccccc3)cc2)O[C@@](OCc2cn(CC(O)Cn3c([N+](=O)[O-])cnc3C)nn2)(C(=O)O)C[C@@H]1O (some centres unmarked)	B-cell receptor CD22 (CD22, Homo sapiens, UniProt P20273)	ITC				ΔG	-7.18 ± 0.13 kcal/mol
COC(=O)[C@@]1(C)C=C(C(=O)Nc2cccc(C(=O)Nc3ccc(Nc4nccc(-c5cccnc5)n4)c(C)c3)c2)C(=O)CC1	Mitogen-activated protein kinase 14 (MAPK14, Homo sapiens, UniProt Q16539)	kinase activity, inhibitor		400 µM, unit not given	reference: no inhibitor	remaining activity	0.125
CC(C)[C@@H]1NC(=O)[C@H](Cc2ccccc2)NC(=O)CSC[C@@H](C(N)=O)NC(=O)[C@H](CCC(=O)O)NC(=O)[C@H](CO)NC(=O)[C@H](Cc2c[nH]c3cccc(Cl)c23)NC(=O)[C@H](C2CCCCC2)NC(=O)[C@H](C(C)C)NC(=O)[C@H](Cc2ccc(O)cc2)NC(=O)[C@H](CC(=O)O)NC(=O)[C@H](Cc2c[nH]c3ccccc23)NC(=O)[C@H](Cc2ccc(N)nc2)NC(=O)[C@H](Cc2c[nH]c3ccc(Cl)cc23)NC(=O)[C@H](CCC(=O)O)NC1=O	Interleukin-1 receptor-like 2 (IL1RL2, Homo sapiens, UniProt Q9HB29)	reporter gene (SEAP), inhibitor, HEK-Blue IL-36R reporter	HEK-Blue IL-36R cells	100 µM, 6 h, added: IL-36β 10 ng/mL		remaining activity	51.6%
CCC1(CC)C(=O)N(c2cccc(CN3CCN(Cc4cccc5cccnc45)CC3)c2)C1=O	Dipeptidyl peptidase 8	inhibitor		added: GP-AMC substrate	reference: Ki' DPP9 over Ki' DPP8	selectivity ratio	0.2
CCOC(=O)C(CC)(CCCSCCOCCOCCOCCOCCNc1ccc([N+](=O)[O-])c2nonc12)NC(=O)c1ccc(C2CC2)c(Cc2ccc(F)cc2)n1 (centres unmarked)	Cannabinoid receptor 2 (Cnr2, Mus musculus, UniProt P47936)	cAMP, agonist				Emax	117%
CCCn1ccc2c(N3CCN(CCCCOc4ccc5c(c4)NC(=O)CC5)CC3)cccc21	D(2) dopamine receptor (DRD2, Homo sapiens, UniProt P14416)	Gi/o signalling (cAMP inhibition), agonist, GloSensor cAMP		concentration not given		activity	inactive
CN1CCN(c2ccc3[nH]c(-c4ccc5[nH]c(-c6ccc(OCCCCNC(=O)c7ccc8c(c7)C(=O)OC87c8ccc(N(C)C)cc8[Si](C)(C)c8cc(N(C)C)ccc87)cc6)nc5c4)nc3c2)CC1	Albumin (ALB, Bos taurus, UniProt P02769)	covalent crosslinking, fluorescence, in-gel, SDS-PAGE		24 h, 37 °C	reference: 4-regioisomer	fluorescence increase	1.5 fold
Cn1cc(-c2cc(N3CCCCS3(=O)=O)ccc2N[C@H]2CC[C@H](C)CC2)c2cc[nH]c2c1=O (stereo in doubt)	Bromodomain testis-specific protein, BD2 (BRDT, Homo sapiens, UniProt Q58F21)	binding, competition with immobilised ligand		1 µM		remaining binding	0.6%
N#CN1CC[C@H](C(=O)Nc2nc3c(s2)CN(C(=O)Cn2cc(COCCOCCOCCOCCNC(=O)CCCC[C@@H]4SC[C@@H]5NC(=O)N[C@@H]54)nn2)CC3)C1	Isochorismatase domain-containing protein 1 (Homo sapiens, UniProt Q96CN7)	probe binding, affinity probe, neutravidin pull-down LC-MS/MS	HEK293T, cell lysate	5 µM, 1 h, single replicate, unit not given	higher = more pulled down	iBAQ abundance	3.77e+08 and 2.11e+08 and 1.43e+08
C[C@@H]1C[C@H](Nc2ccccc2)c2cc(F)ccc2N1C(=O)c1ccc(C#N)c(F)c1	Ecdysone receptor (Aedes albopictus, UniProt Q9U3Y4)	ligand binding, inhibitor	intact cells	added: [3H]ponasterone A	direction not given	pIC50 Z-score	2.26
CCCCCC=CC=C1C(=O)C=CC1CC=CCCCC(=O)O (centres unmarked)	Elongation factor 2, Cys41 (EEF2, Homo sapiens, UniProt P13639)	competitive isoTOP-ABPP	proteome, soluble, MDA-MB-231	100 µM, 60 min, added: iodoacetamide probe	reference: DMSO over compound-treated, higher = stronger cysteine blockade	isoTOP-ABPP competition ratio	2.6
O=[N+]([O-])c1cc(Br)cc([N+](=O)[O-])c1NS(=O)(=O)c1ccc(Br)cc1	PYL10, with HAB1 (Arabidopsis thaliana, UniProt Q8H1R0)	antagonist		160 µM, added: ABA 5 µM	higher = more HAB1 activity	HAB1 phosphatase activity	0.103 a.u. and 0.104 a.u. and 0.101 a.u.
O=C(O)[C@H]1O[C@@H](O[C@H]2[C@H](O)[C@H](O)[C@H](O[C@H]3[C@H](O)[C@H](O)[C@H](O)O[C@@H]3C(=O)O)O[C@H]2C(=O)O)[C@@H](O)[C@@H](O)[C@@H]1O[C@@H]1O[C@@H](C(=O)O)[C@@H](O)[C@H](O)[C@@H]1O	Beta-lactoglobulin (LGB, Bos taurus, UniProt P02754, A134V/G80D)	isothermal titration calorimetry		pH 4.00, 37 °C, 50 mM KH2PO4		-TΔS	0.478 kcal/mol
COc1cc(C2C(NC(=O)c3ccc(NC(=O)OC(C)(C)C)cc3)(C(=O)O)C(c3ccc(OC(=O)c4cccs4)c(OC)c3)C2(NC(=O)c2ccc(NC(=O)OC(C)(C)C)cc2)C(=O)O)ccc1OC(=O)c1cccs1 (centres unmarked)	Glucagon-like peptide 1 receptor (GLP1R, Homo sapiens, UniProt P43220, L144A)	cAMP accumulation, agonist		receptor mutant	reference: wild type	Emax	19 ± 5.12%
Cc1cc(C)c(CNC(=O)c2c(C)n(C(C)C3CCC(NC4(C)COC4)CC3)c3ccccc23)c(=O)[nH]1 (centres unmarked)	Histone-lysine N-methyltransferase EZH2 (EZH2, Homo sapiens, UniProt Q15910)	binding, TR-FRET				residence time	114 min
